Experimental data pooled from the literature.
Compare with care: the assays were run in different laboratories. Several values in a cell are separate wells, animals, samples, runs or records.
Technique: steady-state kinetics
B1: enzyme E64A (Nitrosopumilus maritimus, UniProt A9A5X4); chain MDSQKFDSIIFDCDGVLVDITQSYDKTIDKTCRYVLKEFAKIDSITIDHKIIDGFKSSGGFNDAVDLVYAAILSLYTANKLNKKPSEFIYDVISNTDKTGIRSVQSYLESIYDVSEFLSKLGSLGDRHNNPVYSIFDQFFFGPELYGKLFDKQSKFSEEGMISNDKVILSVSLLETLQKEFGKKIAVVTGRGIESIRYSLKDMMDYFDTKNSAFLEDEPRELAKPNPATLIRAIQSMESKNCLYVGDSMEDYMMAKDAAQAGHSTTFCAIVGTSTNPEDRRKLFADSGVEMILESINDIPKVLNLV
B2: enzyme C424A (Methanosarcina mazei, UniProt Q8PVB1); chain MSEQRSVPLREHLLALKPCRHGGLIQETSETYGIPENEILDFSANFNPLGSPFDYPENGLNFEDIIKKSCGKLLEYPDNRYVEFREAAARFVGLGVTPQSIVPGNGSTEIVRLVVESVIEKGDKVLLPWPTFGEYEMQCRITGAEPVCPSQEEVNTLPDEVLEEAKILFICNPNNPTGKLRTREELKVLAERCREHKTLLYVDEAFIELSDPSQSVADLPAENNYVFVMRSLTKDFAIPGIRMGFGIAPPAMADILNTARLSWNLGAIANNTGIALLNIEGGIDSPYLKKAREMILKEGETLKAKIDRIRGFEAGEVNVNFILVDVSKFMLNSSELTARLAARGVLVRDCVSFHGLGKNYIRVAVRTEKENDRLIAAIGDVITEWGREQAKNELQHVIEKASEEGIGGRKTCEYYPCHFEGQNATFCFCPFYPCENEKTGGKWIQSSRGGRVWSCVDCHLVHKKEIAQKILDCLMHEGDTDELVKVAWKEVMEPIL
B3: enzyme (Klebsiella pasteurii, UniProt A0A9Q9S525); chain MSDAKAKITLGGDTAIELDVLKGTLGQDVIDIRSLGSKGVFTFDPGFTSTASCESKITFIDGDEGILLHRGFPIDQLATDSNYLEVCYILLNGEKPTQAQYDEFKTIVTRHTMIHEQITRLFHAFRRDSHPMAVMCGITGALAAFYHDSLDVNNPRHRDIAAFRLLSKMPTMAAMCYKYSIGQPFVYPRNDLSYAGNFLNMMFSTPCEKYEVNPILERAMDRILILHADHEQNASTSTVRTAGSSGANPFACIAAGIASLWGPAHGGANEAALKMLEEISSVEHIPEFVRRAKDKNDSFRLMGFGHRVYKNYDPRATVMRETCHEVLKELGTKDDLLEVAMELEHIALNDPYFIEKKLYPNVDFYSGIILKAMGIPSSMFTVIFAMARTVGWIAHWNEMHSDGMKIARPRQLYTGYEKRDFKNDIAR
B4: acsA (Pseudomonas chlororaphis, UniProt Q5CD72); chain MRDYEHVVESFDYLQSATQDLHGELTALNACVECCDRHAHGEAVALYCEAQDGHAERYRFRDLQRQAARFGNFLREQGVKPGDRVAGLMPRTVELLIAILGTWRIGAVYQPLFTAFGPKAIEQRLNCSNARWIVTDPHNRPKLDDVTDCPSIVVTGGAPQNPADHHFWSALNRQADDCAPVLLDASAPFLLMCTSGTTGPAKPLEVPLSAILAFKGYMRDAIDLRADDRFWNLADPGWAYGLYYAVTGPLACGYATLFYDGPFTVESTRHIIAKYAINNLAGSPTAYRFLIAAGAEFADAVRGRLRAVSSAGEPLNPQVVRWFAEQLGVVIHDHYGQTEIGMVLCNHHGLRHPVREGSAGYAVPGYRIVVLDKAHRELPAGQPGVLAVDRERSPLCWFDGYLGMPTQAFAGRYYLSGDIVELNDDGSISFVGRNDDLITTSGYRVGPFDVESALIEHPAVVEAAVIGKPDPQRTELIKAFVVLNTPYLPSPELAEELRLHVRQRLAAHAYPREMEFVDHLPKTPSGKLQRFILRNQEIAKQQALG
B5: SCO6712 S292F/Y229F (Streptomyces coelicolor, UniProt Q9XAL8); chain AKGITARTAPAGGEVRHLKMYAEKLADGQMGYGFEKGKASVPGPLIEVNEGDTLHIEFTNTMDVRASLHVHGLDYEISSDGTAMNKSDVEPGGTRTYTWRTHKPGRRDDGTWRPGSAGYWHYHDHVVGTEHGTGGIRNGLYGPVIVRRKGDVLPDATHTIVFNDMTINNRKPHTGPDFEATVGDRVEIVMITHGEFYHTFHMHGHRWADNRTGILTGPDDPSRVIDNKITGPADSFGFQIIAGEGVGAGAWMYHCHVQFHSDMGMVGLFLVKKPDGTIPGYEPHEHGGATAKSGESGEPTGGAAAHEHEH
B6: enzyme (Plasmodium falciparum, UniProt C0H484); chain MVREAHELLDGSRPIPIDKITYELSQNIILAFDNHENINNKDIQIEIEGRVGLVIDKNKNRIKLPINTDAIIENNYSDFQAGIDRESFEYLLDYFHNMTLKKRLSIRNNDNNNNNMDNNNNNMDNNNNIHIHNSGNNTNQTHSYDKNADDNKPTCNYSYDKKNACIYDFLELKTTKSIDKYYVIKNNNSRIRTTTYLNDDNKQETESMMIQSLQKDNLNIWNVYTGNNYDYFDDDEEDDDDDYNNNNNNNNGDTGTKTNIATNNTHGLTTSKSQHIYNNLVDKNDSIDYRISINIEYTKPISKLYLSKNTPVHERLKERTTFINTYLGLQVDMTKIKTKNNELYEVEIEIPSKTIFKAMSNLRNKKDSNYLHFICSNLVNNIRGICSQLNVFKKSKHMLKNTMITKLNNNSNNQNNLSLLPNHPNDDTISSKEKEKFKKYIHSVLPIVGDY
B7: Comt (Rattus norvegicus, UniProt P22734); chain MPLAAVSLGLLLLALLLLLRHLGWGLVTIFWFEYVLQPVHNLIMGDTKEQRILRYVQQNAKPGDPQSVLEAIDTYCTQKEWAMNVGDAKGQIMDAVIREYSPSLVLELGAYCGYSAVRMARLLQPGARLLTMEMNPDYAAITQQMLNFAGLQDKVTILNGASQDLIPQLKKKYDVDTLDMVFLDHWKDRYLPDTLLLEKCGLLRKGTVLLADNVIVPGTPDFLAYVRGSSSFECTHYSSYLEYMKVVDGLEKAIYQGPSSPDKS
B8: enzyme (Escherichia coli, UniProt P69937); chain MSWIILVIAGLLEVVWAVGLKYTHGFSRLTPSVITVTAMIVSMALLAWAMKSLPVGTAYAVWTGIGAVGAAITGIVLLGESANPMRLASLALIVLGIIGLKLSTH
B9: acmB (Sterolibacterium denitrificans, UniProt A9XWD7); chain MSIETNTYDVIVVGSGAGAMLAAARAHDLGLSVLVVEKSDKYGGTSAVSGGAVWIPNNSQMQIKDSFDEALTYLKAATQGLVAEDRLLAYLESAPQMVEYINANMTLQYFPCHRYPDYYQHLPGAKPGGRTMEPMLFDAALLGDEFANLRMAYTGTLLMGKASMTATEAHVMLAKEPGWMLQVIKSLGRYYLDLPWRLKSRHDRKRGLGNAMAAGLRHALLERKVPLWLNTPFESLITEGAENKRVTGIVVKRNGQTLQLTARRGVVLGAGGFERNQQMREQYLPKPTNAAWSATPPHNTGDTIRAAMDIGARAELMDWAWWVPSIHVPGEAAQTGLFAERNLPGCIVVNGKGQRFINEASPYLEFGAAMYENHARSGSAVPAWLIFDGKFRYNYPMGPLMPGQIQPDRKAWLGKVYWRDDTLEGLAKQIGVDAAGLKQSVELNNQYAQDGKDREFDKGGNVFDRYYGDYNVKPNPCLAPIGKPPYYAMRVDAGDIGTKGGLLTDKDARVLDESDRPIEGLYCIGNNSASVMGKAYPGAGGTLGPAMTFGFRAANHIAASK
B10: enzyme (Burkholderia cenocepacia, UniProt B4E589); chain MTGYDRQSISDTTAKILLEVQAVHFNAEKPFIFTSGWASPVYIDCRKLISYPRVRRALMEMAETTITRDIGFEQIDAVAGGETAGIPFAAWIADRMMVPMQYVRKKPKGFGRNAQIEGHLEEGSRVLLVEDLTTDSRSKINFVNALRTAGATVNHCFVLFHYNIFKESVSVLKDIDVDLHALATWWDVLRVAKASGYFETKTLDEVEKFLHAPAEWSAAHGGATAPKE
B11: enzyme (Bacteroides fragilis, UniProt Q5LAA3); chain MAMLEKIQETAAFLKGKMHTSPETAIILGTGLGSLANEITEKYEIKYEDIPNFPVSTVEGHSGKLIFGKLGNKEIMAMQGRFHYYEGYSMKEVTFPVRVMRELGIKTLFVSNASGGTNPEFEIGDLMIITDHINYFPEHPLRGKNIPYGPRFPDMSEAYDKELIRKADAIAAEKGIKVQHGIYIGTQGPTFETPAEYKLFHILGADAVGMSTVPEVIVANHCGIKVFGISVVTDLGVEGKIVEVSHEEVQKAADAAQPKMTTIMRELINRA
B12: enzyme (Arabidopsis thaliana, UniProt Q9C969); chain GSFGMLSRRTLGTDMPVMAQIRSLMAELTNPMSLAQGVVHWQPPQKALEKVKELVWDPIISSYGPDEGLPELRQALLKKLREENKLTNSQVMVTAGANQAFVNLVITLCDAGDSVVMFEPYYFNSYMAFQMTGVTNIIVGPGQSDTLYPDADWLERTLSESKPTPKVVTVVNPGNPSGTYVPEPLLKRIAQICKDAGCWLIVDNTYEYFMYDGLKHCCVEGDHIVNVFSFSKTYGMMGWRLGYIAYSERLDGFATELVKIQDNIPICAAIISQRLAVYALEEGSGWITERVKSLVKNRDIVKEALEPLGKENVKGGEGAIYLWAKLPEGHRDDFKVVRWLAHRHGVVVIPGCASGSPGYLRVSFGGLQEVEMRAAAARLRKGIEELLHHGMVE
Sequence of UniProt P52961 (whole entry, looked up): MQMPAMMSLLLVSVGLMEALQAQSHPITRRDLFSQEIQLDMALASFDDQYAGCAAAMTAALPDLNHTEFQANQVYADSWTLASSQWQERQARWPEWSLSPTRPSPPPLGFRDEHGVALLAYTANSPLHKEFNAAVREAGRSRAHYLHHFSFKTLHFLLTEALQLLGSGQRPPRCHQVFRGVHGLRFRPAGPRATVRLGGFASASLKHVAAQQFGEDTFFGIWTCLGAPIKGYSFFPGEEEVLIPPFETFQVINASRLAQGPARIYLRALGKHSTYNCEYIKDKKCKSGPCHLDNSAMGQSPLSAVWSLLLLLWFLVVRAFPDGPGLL
Sequence of UniProt Q6UX07 (whole entry, looked up): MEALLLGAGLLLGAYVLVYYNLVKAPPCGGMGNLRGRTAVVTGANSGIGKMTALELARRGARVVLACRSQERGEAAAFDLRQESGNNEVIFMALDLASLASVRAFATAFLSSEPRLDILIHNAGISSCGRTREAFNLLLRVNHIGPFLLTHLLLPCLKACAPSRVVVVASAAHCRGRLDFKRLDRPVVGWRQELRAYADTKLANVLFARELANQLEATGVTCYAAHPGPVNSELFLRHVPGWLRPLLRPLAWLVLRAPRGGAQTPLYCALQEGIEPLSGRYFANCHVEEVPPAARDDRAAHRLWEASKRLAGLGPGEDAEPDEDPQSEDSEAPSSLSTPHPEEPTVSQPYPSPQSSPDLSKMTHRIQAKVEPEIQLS

Substance	substrate	setting	Km
B1 (enzyme E64A)	N[C@H](COP(=O)(O)O)Cc1c[nH]cn1	pH 7.8, 25 °C	63 µM
ART1 (Homo sapiens, UniProt P52961)	CC(=O)N[C@@H](CCCNC(=N)N)C(=O)O	pH 7.5, 25 °C, HEPES 50 mM, together with: saturating NAD+	6300 µM
B2 (enzyme C424A)	Nc1ncnc2c1ncn2[C@@H]1O[C@H](COP(=O)(O)OP(=O)(O)OP(=O)(O)O)[C@@H](O)[C@H]1O	pH 8.5, 25 °C, apparent, anoxic, together with: L-Thr 10 mM	171 µM
B3 (enzyme)	O=C(O)CC(=O)C(=O)O	pH 7.5, 30 °C, apparent	89 µM
B4 (acsA)	O=C(O)CCC(F)(F)F	pH 7	2000 µM
DHRS13 (Homo sapiens, UniProt Q6UX07)	CC1=C(/C=C/C(C)=C/C=C/C(C)=C/C=O)C(C)(C)CCC1	pH 7.4, 37 °C	66.7 µM
B5 (SCO6712 S292F/Y229F)	CCn1c(=NN=c2sc3cc(S(=O)(=O)O)ccc3n2CC)sc2cc(S(=O)(=O)O)ccc21	pH 7, 37 °C, NaCl 150 mM, together with: O2 cosubstrate	1500 µM
B6 (enzyme)	Nc1nc2c(ncn2[C@@H]2O[C@H](COP(=O)(O)OP(=O)(O)OP(=O)(O)O)[C@@H](O)[C@H]2O)c(=O)[nH]1	together with: Mn2+	15 µM
B7 (Comt)	Cc1cc(=O)oc2c(O)c(O)ccc12	pH 7.4, 37 °C, not purified	1.7 µM
B8 (enzyme)	N=C(N)N	pH 7.5	1700 µM
enzyme (Pseudomonas putida, UniProt Q88KZ0)	O=C[C@H](O)COP(=O)(O)O	together with: NADP+	780 µM
B9 (acmB)	CC(=O)[C@H]1CC[C@H]2[C@@H]3CCC4=CC(=O)CC[C@]4(C)[C@H]3CC[C@]12C	pH 6.5, together with: DCPIP 0.1–0.3 mM	4.4 µM
enzyme (Thermothielavioides terrestris, UniProt G2R650)	Oc1cc(O)cc(/C=C/c2ccc(O)c(O)c2)c1	pH 8, 45 °C	191 µM
B10 (enzyme)	O=P(O)(O)OC[C@H]1O[C@H](OP(=O)(O)OP(=O)(O)O)[C@H](O)[C@@H]1O	pH 7, room temperature, together with: orotate 1 mM	555 µM
enzyme (Acinetobacter baumannii, UniProt A0A5P1UDB1)	O=C(O)c1cccc(O)c1O	pH 7.5, 37 °C, apparent	20.6 µM
B11 (enzyme)	OC[C@H]1O[C@@H](n2cnc3c(O)ncnc32)[C@H](O)[C@@H]1O	–	521 µM
B12 (enzyme)	O=C(O)C(=O)Cc1c[nH]c2ccccc12	–	710 µM and 402 µM
enzyme (UniProt Q83XK4)	NC(=O)C1=CN([C@@H]2O[C@H](COP(=O)(O)OP(=O)(O)OC[C@H]3O[C@@H](n4cnc5c(N)ncnc54)[C@H](OP(=O)(O)O)[C@@H]3O)[C@@H](O)[C@H]2O)C=CC1	pH 7, 30 °C, cofactor varied	25.9 µM
enzyme (Chlorobaculum tepidum, UniProt Q8KC02)	CC(=O)C(=O)O	pH 7.5, 30 °C	600 µM

Some of these lines once more:
Substance	substrate	setting	Km
B1 (enzyme E64A)	N[C@H](COP(=O)(O)O)Cc1c[nH]cn1	pH 7.8, 25 °C	63 µM
ART1 (Homo sapiens, UniProt P52961)	CC(=O)N[C@@H](CCCNC(=N)N)C(=O)O	pH 7.5, 25 °C, HEPES 50 mM, together with: saturating NAD+	6300 µM
B2 (enzyme C424A)	Nc1ncnc2c1ncn2[C@@H]1O[C@H](COP(=O)(O)OP(=O)(O)OP(=O)(O)O)[C@@H](O)[C@H]1O	pH 8.5, 25 °C, apparent, anoxic, together with: L-Thr 10 mM	171 µM
